# Results of several laboratories.
# Organism: Streptococcus pneumoniae
Structure (SMILES),test,system,conditions,MIC
c1ccc(CCNC2CCCc3c2[nH]c2ccc(C4CCCCC4)cc32)cc1 (stereo not shown),broth microdilution,"serotype 14 700676, supplemented C+Y medium",,1.3 µg/mL
CN[C@@H]1[C@H](O)[C@H](NC)[C@H]2O[C@]3(O)[C@H](O[C@@H]2[C@H]1O)O[C@H](C)C[C@H]3NC(=O)Cc1ccccc1,"microbial growth, broth dilution",DAW27,,100 µg/mL
CC[C@H](C)[C@@H]1NC(=O)[C@H](CO)NC(=O)[C@H](CCCCN)NC(=O)[C@@H]2CSSC[C@@H](C(=O)N[C@@H](Cc3ccc(O)cc3)C(N)=O)NC(=O)[C@H](CCCCN)NC(=O)[C@@H]3CSSC[C@H](NC(=O)[C@H](CCCNC(=N)N)NC(=O)[C@H](CC(C)C)NC(=O)[C@H](CC(=O)O)NC(=O)[C@H](CC(=O)O)NC(=O)[C@H](CCC(=O)O)NC(=O)[C@H](CC(N)=O)NC(=O)[C@H](Cc4c[nH]c5ccccc45)NC(=O)C(C)(CC)NC(=O)CNC(=O)[C@H](CC(N)=O)NC(=O)[C@@H](NC(=O)CNC(=O)[C@H](Cc4ccccc4)NC(=O)CN)CSSC[C@H](NC(=O)[C@H](Cc4ccc(O)cc4)NC(=O)CNC(=O)CNC(=O)[C@H](CCCCN)NC(=O)[C@H](Cc4ccc(O)cc4)NC(=O)[C@H]4CCCN4C(=O)[C@@H]4CCCN4C1=O)C(=O)N[C@@H](C)C(=O)N[C@@H](CCCCN)C(=O)N1CCC[C@@H]1C(=O)NCC(=O)N[C@@H](Cc1ccccc1)C(=O)N[C@@H](C(C)C)C(=O)N3)C(=O)N[C@@H](Cc1c[nH]cn1)C(=O)N[C@@H](CC(N)=O)C(=O)N[C@@H](Cc1c[nH]cn1)C(=O)N2 (stereo partly shown),broth microdilution,19F,18 h,0.5 µM
CN[C@@H]1[C@H](O)[C@H](NC)[C@H]2O[C@]3(O)[C@H](O[C@@H]2[C@H]1O)O[C@H](C)C[C@H]3NC(=O)Cc1cc(Cl)ccn1,"microbial growth, broth dilution",DAW27,,25 µg/mL
c1ccc2c(c1)nc(CNCC13CC4CC(CC(C4)C1)C3)n2CC1CCCC1,,ATCC 49619,,2 µg/mL
O=C(c1ccccc1O)c1[nH]c(Cl)c(Cl)c1-n1c(C(=O)c2ccccc2O)cc(Cl)c1Cl,microbial growth,ATCC49619,,0.25 µM
CC[C@H](C)[C@@H]1NC(=O)[C@H](CO)NC(=O)C(C)(CCCCN)NC(=O)[C@@H]2CSSC[C@@H](C(=O)N[C@@H](Cc3ccc(O)cc3)C(N)=O)NC(=O)[C@H](CCCCN)NC(=O)[C@@H]3CSSC[C@H](NC(=O)[C@H](CCCNC(=N)N)NC(=O)C(C)(CC(C)C)NC(=O)[C@H](CC(=O)O)NC(=O)[C@H](CC(=O)O)NC(=O)[C@H](CCC(=O)O)NC(=O)[C@H](CC(N)=O)NC(=O)[C@H](Cc4c[nH]c5ccccc45)NC(=O)C(C)(CC)NC(=O)CNC(=O)[C@H](CC(N)=O)NC(=O)[C@@H](NC(=O)CNC(=O)[C@H](Cc4ccccc4)NC(=O)CN)CSSC[C@H](NC(=O)[C@H](Cc4ccc(O)cc4)NC(=O)CNC(=O)CNC(=O)[C@H](CCCCN)NC(=O)[C@H](Cc4ccc(O)cc4)NC(=O)[C@H]4CCCN4C(=O)[C@@H]4CCCN4C1=O)C(=O)N[C@@H](C)C(=O)N[C@@H](CCCCN)C(=O)N1CCC[C@@H]1C(=O)NCC(=O)N[C@@H](Cc1ccccc1)C(=O)N[C@@H](C(C)C)C(=O)N3)C(=O)N[C@@H](Cc1c[nH]cn1)C(=O)NC(C)(C)C(=O)N[C@@H](Cc1c[nH]cn1)C(=O)N2 (stereo partly shown),broth microdilution,BS-442,18 h,1 µM
Oc1c(Br)cc(Br)c2nc3cc(F)c(F)cc3nc12,broth microdilution,6303,,0.3 µM
CC[C@H](C)[C@@H]1NC(=O)[C@H](CO)NC(=O)C(C)(CCCCN)NC(=O)[C@@H]2CSSC[C@@H](C(=O)N[C@@H](Cc3ccc(O)cc3)C(N)=O)NC(=O)[C@H](CCCCN)NC(=O)[C@@H]3CSSC[C@H](NC(=O)[C@H](CCCNC(=N)N)NC(=O)C(C)(CC(C)C)NC(=O)[C@H](CC(=O)O)NC(=O)[C@H](CC(=O)O)NC(=O)[C@H](CCC(=O)O)NC(=O)[C@H](CC(N)=O)NC(=O)[C@H](Cc4c[nH]c5ccccc45)NC(=O)[C@@H]4CCCN4C(=O)CNC(=O)[C@H](CC(N)=O)NC(=O)[C@@H](NC(=O)CNC(=O)[C@H](Cc4ccccc4)NC(=O)CN)CSSC[C@H](NC(=O)[C@H](Cc4ccc(O)cc4)NC(=O)CNC(=O)CNC(=O)[C@H](CCCCN)NC(=O)[C@H](Cc4ccc(O)cc4)NC(=O)CNC(=O)[C@H](CCCCN)NC1=O)C(=O)N[C@@H](C)C(=O)N[C@@H](CCCCN)C(=O)NCC(=O)NCC(=O)N[C@@H](Cc1ccccc1)C(=O)N[C@@H](C(C)C)C(=O)N3)C(=O)N[C@@H](Cc1c[nH]cn1)C(=O)NC(C)(C)C(=O)N[C@@H](Cc1c[nH]cn1)C(=O)N2 (stereo partly shown),broth microdilution,D39,18 h,0.13 µM
CN[C@@H]1[C@H](O)[C@H](NC)[C@H]2O[C@]3(O)[C@H](O[C@@H]2[C@H]1O)O[C@H](C)C[C@H]3NC(=O)Cc1ccc(F)cn1,"microbial growth, broth dilution",DAW27,,12.5 µg/mL

# For quick reference, copied from above:
Structure (SMILES),test,system,conditions,MIC
CC[C@H](C)[C@@H]1NC(=O)[C@H](CO)NC(=O)C(C)(CCCCN)NC(=O)[C@@H]2CSSC[C@@H](C(=O)N[C@@H](Cc3ccc(O)cc3)C(N)=O)NC(=O)[C@H](CCCCN)NC(=O)[C@@H]3CSSC[C@H](NC(=O)[C@H](CCCNC(=N)N)NC(=O)C(C)(CC(C)C)NC(=O)[C@H](CC(=O)O)NC(=O)[C@H](CC(=O)O)NC(=O)[C@H](CCC(=O)O)NC(=O)[C@H](CC(N)=O)NC(=O)[C@H](Cc4c[nH]c5ccccc45)NC(=O)C(C)(CC)NC(=O)CNC(=O)[C@H](CC(N)=O)NC(=O)[C@@H](NC(=O)CNC(=O)[C@H](Cc4ccccc4)NC(=O)CN)CSSC[C@H](NC(=O)[C@H](Cc4ccc(O)cc4)NC(=O)CNC(=O)CNC(=O)[C@H](CCCCN)NC(=O)[C@H](Cc4ccc(O)cc4)NC(=O)[C@H]4CCCN4C(=O)[C@@H]4CCCN4C1=O)C(=O)N[C@@H](C)C(=O)N[C@@H](CCCCN)C(=O)N1CCC[C@@H]1C(=O)NCC(=O)N[C@@H](Cc1ccccc1)C(=O)N[C@@H](C(C)C)C(=O)N3)C(=O)N[C@@H](Cc1c[nH]cn1)C(=O)NC(C)(C)C(=O)N[C@@H](Cc1c[nH]cn1)C(=O)N2 (stereo partly shown),broth microdilution,BS-442,18 h,1 µM
